Published values pooled from the literature.
Parts stem from different laboratories: compare values within a part only. Substitutions count along the parent as printed.

Set 1 — technique: RNA Bind-n-Seq; form: RNA; medium: in vitro; concentration: 100 nM; relative to: input RNA pool; direction: higher = stronger binding
Target: RING finger protein unkempt homolog, zinc fingers 1-6, SBP tag (UNK, Homo sapiens, UniProt Q9C0B0, residues 30-357)
UniProt Q9C0B0, sequence (30-357, looked up): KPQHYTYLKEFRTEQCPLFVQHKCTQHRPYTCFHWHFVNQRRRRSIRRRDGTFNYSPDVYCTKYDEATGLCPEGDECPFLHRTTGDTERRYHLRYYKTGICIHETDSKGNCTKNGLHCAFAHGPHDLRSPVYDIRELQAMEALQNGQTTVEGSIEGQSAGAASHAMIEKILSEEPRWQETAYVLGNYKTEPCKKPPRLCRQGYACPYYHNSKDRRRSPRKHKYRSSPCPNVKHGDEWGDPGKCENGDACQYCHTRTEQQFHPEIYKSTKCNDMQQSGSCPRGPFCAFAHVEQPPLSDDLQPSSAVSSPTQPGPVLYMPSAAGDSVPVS
Notes: RNA with constant flanks, vertebrate orthologous sites, ends assumed
Constant ends, left off below: GGGAGUUCUACAGUCCGACGAUC … CAACAGAGGAUUGAGCAUCA
Oligonucleotide	bound/input enrichment [ratio]
GUCCCUCAGUGAUAGUAUGCCAUCUGUAGCAGAUUCCCACUCAAGUCAUUUUUCUGAAUUUAGUUGUUCUGACUUAGAAAGCAUGAAAACUUCAUGUAGUCACGGUUCUAGUGAUUAUCA	0.598
AGUGCUGAAUAGUAUUAAACAUUUUUGUCUUCCUUUACCUUUUAUCUCCUACCUAAUAUCUAGUCUACUUUUUUAAAUUUCAAAUUUCACUGCUCUUUGAAUUGAUAAUUUCAAUUUUCA	12
AUUUACACUAAUACUGAGGUUACAGUUAAAAGGAUAUCCAAGGUGAUAAUAAAGUGUGUGUUGGUAGUUACUAAAAGAACUUUAGCUAUUACUGCCUUGUAUUUCUAUCCCUUGUUUCAG	0.226
GGUGGGUCUGGGAUAGAAGGGAGGGAAGGGGCAGGAUAUGUGGAAUCUAGGGUAUAUGGGGAGGUGGGGGCAGUUAGUUCUAAGUGGGCUUUAUGUUACCUAUUGUGGGGGUGAGGACAG	1.26
GCUCUAGUUCUUAACAACCAACACUCCUAAAAGAUUUAGAAAAAAGUUUACAACAUAAUCUAGUUUACAGAAAAAUCUUGUGCUAGAAUACUUUUUAAAAGGUAUUUUGAAUAUCAUUAA	0.901
UCACAAUCUCUACUAAGUAGGUUUUUACAUACCAAGUUAAGCCUUCAUUUUACAUAUUUACAGCUUUUCUCCGGAGGAGAUAAAAGAAUCUCAUGCUUCAAGUUACAUGUGGUCUUUGCC	0.413

Set 2 — technique: RNA Bind-n-Seq; form: RNA; medium: in vitro; concentration: 365 nM; relative to: no-protein control; direction: higher = stronger binding
Target: RNA binding protein fox-1 homolog 2, RRM domain, GST-SBP tag (RBFOX2, Homo sapiens, UniProt O43251-10, residues 100-194)
Notes: natural RNA segment, single round, ends assumed
Constant ends, left off below: GGGAGUUCUACAGUCCGACGAUC … UGGAAUUCUCGGGUGCCAA
Residues (chain): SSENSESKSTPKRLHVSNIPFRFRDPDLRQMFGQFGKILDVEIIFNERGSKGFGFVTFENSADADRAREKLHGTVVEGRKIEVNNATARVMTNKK
Oligonucleotide	RBNS enrichment (R)
UGCUCUCCCUGCUGAUGAUAAAGUAAUCUCUGGAGUCACACCUGGGCCAUGUGAUUGUUUUAUUUUGGAAUUGGUGUAUAUCAUGAAGCCUUGCUGAACUAAGUUUUGUG	0.448
GUCCUGUGACCCAUAUUUAGCCGUGUUUGGGACUCCGUGUCUUCAAUGGUUUGUUAGUUGCCAUUACAACUUUGUCUGGGUAGAGUUUUUGAGUUUUUGCAGUUCAGUAU	1.52
UCGCCCCUCCAGUAAGCUGUAGAGUUUCUAUGUGCCUACAUACAUUUCUGUGACAAGUAUUUGUCGUAAAUUAAUUUUAAUUGUGUAUCAAGUGAAAAAGAAACACUGAG	0.585
AGAAAAAAUGAAUGUAUUCCUGUUUUUGAAGAGAAGAAUAAUUUUUUUUUUCUCUAGGGAGAGGUACAGUGUUUAUAUUUUGGAGCCUUCCUGAAGGUGUAAAAUUGUAA	0.538
GUUAAAGACCAGACGUUCUAGAAAAGACCCCUCCUCUCAUGAGCUCCCCCAUCCCUGCUACAGAACACAGCACCCAUGGCGCCUGCAGUGGACUGGCCCCUUAAUUCCCA	0.604
CCUCCAGCCCCUGAGAACUCCAUCUUCCCCUAGUUCUGCCCAGGAGCCCCUGAGAACCCCAUCUUCCCCUGGUUCUCUUGCCCACUCCCCUGCUGGGGCUCCUUCCUGGC	0.826
UAUAGGAGCCCUUGAAUGAAGCUGUGAAUGGAGAGGUUUUCUCUAUAAACCUAUGUGGUAGCCCCCCCCCCGGCCCCCCAAAUGUCCUCAUCUCAGGGCCUCACUUUCUG	0.73
CUUUUUUAAUACUCCGAAAAUUUCAUCAUCUAAGAAAAUGAUUCCAUACAAAUAACUCAGCACACAAGUGACCCAGGACAUAUGCCUGCCAAAGGGAUGUGUUAGAAGGC	1.26
GUGAACUGUUUUUGUGCCAAGAAACCCUGGACCUGGGGCCAAGUAUUUCCCAAGCCAAGCAUCCACUUGUCUGUGUCUGGGAAGGGAUGGCCAAGGCCGCUAGGGUCCUU	0.283
CGCGCCCCGGAGGCCCUGGCUCUGUCCGGAGACCAGGUGAGCACAGCCUGGAGCCUGUGCCCAGGGCCGACAGGCGCGACACCCAGCAAGGCCACCUCUCCCCGGGCCCC	0.246
GAAUGAACUGUAGAAAUGUUUUAAGGACCCAGAAACCCCAUAUGUCUCAUUCCAUGACUAUAGGUGAGAGAAUUCUUUCCUAAGAGGGUUUGAUACCAAUAGGGGAAAAU	0.675
UGUUUUCCCUUUGGUCCCAGGCCCUGGGGGAAAGGAAGGAAGUGCAUGCUUGGGGACUGGUCCCACUGGAUCUCUAUCCUAACGUCCAUGGCCGUCAGCACCCCUCCUUU	12.7

Set 3 — technique: protein-binding microarray; form: double-stranded DNA, one strand shown; medium: in vitro; concentration: not given; direction: higher = stronger binding
Target: Protein max, full length (MAX, Homo sapiens, UniProt P61244-2, residues 1-151)
Notes: k-mer, scored over probes, only values ≥0.25
Oligonucleotide	E-score
AGCCACGC	0.43
CACGCGAA	0.361
CATGATGG	0.264
ACGCATGG	0.444
AAATCATG	0.293
CCACGTGG	0.497
ATGCTGCC	0.314
CATGATAC	0.284
CACGCCAA	0.288
CAGGTGCG	0.342
TGAGCACA	0.317
ACATTGTG	0.278
ATGTGGAA	0.282
AGCATGGA	0.418
CTGTCCAC	0.262
CCACCCCA	0.335
AGGGCATG	0.327
CATGACCA	0.332
GAAATCAC	0.269
GGGCACGA	0.284
AGCATGCG	0.443
AAGCACGT	0.445
CGTGTCGA	0.29
ACACGGGA	0.325
CCGCCTGC	0.279

Set 4 — technique: universal PBM; form: double-stranded DNA, one strand shown; medium: in vitro; concentration: not given; direction: higher = stronger binding
Target: Sal-like protein 4, full length isoform B (SALL4, Homo sapiens, UniProt Q9UJQ4-2, residues 1-616)
Notes: 8-mer, flanks averaged, mean of replicates
Target sequence (chain): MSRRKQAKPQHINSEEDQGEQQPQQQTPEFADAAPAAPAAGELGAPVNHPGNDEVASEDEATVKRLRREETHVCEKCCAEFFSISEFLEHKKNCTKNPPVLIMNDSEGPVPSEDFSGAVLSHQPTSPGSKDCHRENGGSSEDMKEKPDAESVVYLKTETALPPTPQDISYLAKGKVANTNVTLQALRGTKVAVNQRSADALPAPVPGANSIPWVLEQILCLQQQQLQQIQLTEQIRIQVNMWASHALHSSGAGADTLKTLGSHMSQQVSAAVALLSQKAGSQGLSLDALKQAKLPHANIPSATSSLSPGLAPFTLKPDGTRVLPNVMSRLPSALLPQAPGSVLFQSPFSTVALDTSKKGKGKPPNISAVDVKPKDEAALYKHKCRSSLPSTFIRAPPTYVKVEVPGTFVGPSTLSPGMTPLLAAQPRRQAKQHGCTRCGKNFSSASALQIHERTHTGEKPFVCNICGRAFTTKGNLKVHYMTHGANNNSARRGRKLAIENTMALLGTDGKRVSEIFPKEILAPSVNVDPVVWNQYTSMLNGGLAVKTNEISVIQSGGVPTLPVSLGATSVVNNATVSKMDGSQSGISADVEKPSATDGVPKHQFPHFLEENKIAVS
Oligonucleotide	E-score
GGACTCAA	-0.134
GCATGAAA	0.155
CGGATCAA	0.0563
CGCCTCGA	-0.161
CTGAGGAA	-0.0464
CAGTGTCC	-0.174
ATACCGAG	0.0193
AGTATAAA	0.357
ACGTGTAC	0.0688
GCTTCAAC	-0.116
ACTAGACG	0.159
GCCCACCA	-0.158
CGCCGTAA	-0.151
CAGTATTC	0.101
CAGGCTTC	-0.204
AACCGCTA	-0.0255
CGCCCTGA	-0.174
AGGAAAAT	0.156

Set 5 — target: CCND3, cyclin fold, Cln2 fusion (human); technique: yeast growth competition, sequencing; medium: yeast; notes: weak parent motif; relative to: not given; direction: higher = stronger binding
Starting sequence: E2F1 docking peptide (human); PPVKRRLDFETDH
Variant	normalised enrichment score
L7D	-0.014
R6A	0.273
K4W	0.34
R5L	0.119
R5A	0.253
L7I	0.00289
D8E	0.226
T11I	0.0693
D8F	1.06
T11Q	0.283
R6V	0.458
T11P	0.257
F9D	0.079
L7W	0.107
R5C	-0.168
F9W	0.27
D12I	0.398
R5I	0.158
D8R	-0.276
T11H	0.385
P2Y	0.112

Set 6 — technique: DHFR PCA, deep sequencing; medium: yeast; added: (+)-ABA 0.39 µM; relative to: wild-type fitted maximum; direction: higher = stronger binding
Target: ABI1, truncated, D143A, DHFR fusion (Arabidopsis thaliana)
Notes: methotrexate growth selection, single substitutions
Starting sequence: PYL1, truncated, DHFR fusion (Arabidopsis thaliana); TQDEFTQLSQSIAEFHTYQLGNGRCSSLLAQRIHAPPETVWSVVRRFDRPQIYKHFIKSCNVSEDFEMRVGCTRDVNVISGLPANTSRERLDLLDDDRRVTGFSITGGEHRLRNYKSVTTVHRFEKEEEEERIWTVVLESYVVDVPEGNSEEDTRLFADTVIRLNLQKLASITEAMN
Variant	relative binding score [%]
K126H	56.4
L112R	1.46
E67I	33.3
T101D	-0.838
R163F	-31.4
H110E	30.3
P37N	-13
K168C	32.7
G21W	6.35
V70W	7.34
T73C	31.7
T173M	-9.04
L20Y	31.2
Y18P	18.9
E151V	51.1

Excerpt of the above (set 3):
Oligonucleotide	E-score
AGCATGGA	0.418
CTGTCCAC	0.262
CCACCCCA	0.335
AGGGCATG	0.327
CATGACCA	0.332
GAAATCAC	0.269
GGGCACGA	0.284
AGCATGCG	0.443
AAGCACGT	0.445
CGTGTCGA	0.29
ACACGGGA	0.325
